Experimental data gathered from unrelated publications.
Every numbered part comes from another study and shows a few of its results, in no order. Changes are numbered by the printed parent chain.

Set 1
Target: Centromere-binding protein 1, full length, His-tagged (CBF1, Saccharomyces cerevisiae, UniProt P17106, residues 1-351)
Sequence of UniProt P17106 (whole entry, looked up): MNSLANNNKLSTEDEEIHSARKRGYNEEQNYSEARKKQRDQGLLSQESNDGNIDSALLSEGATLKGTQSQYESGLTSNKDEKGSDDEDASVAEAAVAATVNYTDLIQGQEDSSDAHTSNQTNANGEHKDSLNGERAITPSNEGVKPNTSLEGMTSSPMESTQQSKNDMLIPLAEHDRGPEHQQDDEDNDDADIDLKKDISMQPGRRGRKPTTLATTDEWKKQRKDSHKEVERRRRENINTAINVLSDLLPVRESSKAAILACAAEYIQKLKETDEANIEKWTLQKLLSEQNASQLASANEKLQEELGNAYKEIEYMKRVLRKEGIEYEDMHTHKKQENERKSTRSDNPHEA
Technique: competition protein-binding microarray
Form: double-stranded DNA, one strand shown
Matrix: in vitro
Tested at: 2 µM
Setting: whole 60-bp probe, lowest competitor level
With: Pho4 competitor, 0.05 µM
Reading: higher = stronger binding
The fluorescence intensity of `TTGCCATGGCGATCGCGCGTGGGTATGGTCTTTCCCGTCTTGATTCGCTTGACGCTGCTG` is reported as 74.2 a.u.
For `GTCCGTAACAATTTGCACGATGCTGGCTTCTATGCCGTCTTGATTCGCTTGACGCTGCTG`, the fluorescence intensity was 82.2 a.u.
`TGCGCAACAACTTGTGTCGTGGGTGTATGTCTAGAAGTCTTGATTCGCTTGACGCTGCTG` gave a fluorescence intensity of 83.6 a.u.
`TGATAATGCAATAGCCTTTGATGACAATGTTAGTAAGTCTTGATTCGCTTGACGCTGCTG` has a fluorescence intensity of 78 a.u.
`GTCTTGTCTCATTGCGACGTGGGTGTCCCCACTTCAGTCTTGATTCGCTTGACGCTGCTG` has a fluorescence intensity of 83.2 a.u.
For `CGGGGTTAAGTTTGCGATGTGGGTGGCTTGCAGCAGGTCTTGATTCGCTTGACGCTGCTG`, the fluorescence intensity was 59.8 a.u.
With `TTTACCCATAAGTCCCACGATTATCCACTTTTTAATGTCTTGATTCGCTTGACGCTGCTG` the fluorescence intensity was 71.8 a.u.
`TGCGCAACAACTTGTCACGGTACTTTATGTCTAGAAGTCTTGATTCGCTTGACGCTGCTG` gave a fluorescence intensity of 201 a.u.
With `TAATTTGTAGTATTGAACGTGACGGGAAACAAAAAAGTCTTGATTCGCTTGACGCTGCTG` the fluorescence intensity was 409 a.u.

Set 2
Target: Ras GTPase-activating protein-binding protein 1, RRM domain (G3BP1, Homo sapiens, UniProt Q13283)
Sequence of UniProt Q13283 (whole entry, looked up): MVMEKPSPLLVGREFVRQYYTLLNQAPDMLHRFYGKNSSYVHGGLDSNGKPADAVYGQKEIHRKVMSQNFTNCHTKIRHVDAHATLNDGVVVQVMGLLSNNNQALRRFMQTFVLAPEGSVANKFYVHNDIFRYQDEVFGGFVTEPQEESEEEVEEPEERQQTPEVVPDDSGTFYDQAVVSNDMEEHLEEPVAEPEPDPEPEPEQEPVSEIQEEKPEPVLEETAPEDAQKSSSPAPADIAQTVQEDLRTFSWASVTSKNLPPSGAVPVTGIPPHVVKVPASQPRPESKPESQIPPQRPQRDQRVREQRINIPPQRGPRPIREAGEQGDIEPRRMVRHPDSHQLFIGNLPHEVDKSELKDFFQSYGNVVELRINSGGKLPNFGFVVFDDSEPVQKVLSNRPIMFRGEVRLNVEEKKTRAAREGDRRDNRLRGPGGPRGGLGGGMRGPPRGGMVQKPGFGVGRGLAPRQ
Technique: RNA Bind-n-Seq
Form: RNA
Matrix: in vitro
Tested at: 1 µM
Setting: whole 134-nt RNA, ends assumed
With: 150 mM KCl
Baseline: input library
Reading: higher = stronger binding
With `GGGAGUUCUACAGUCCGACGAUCCUGUGCUACACAUCGUAUGUACCGAAUCGGGGUUUUUGGGGUUUUUGGGGAAAAAAAGGGGAAAGUAUUAUGUUACGCCGUUCGGAUCUGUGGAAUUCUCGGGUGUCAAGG` the log2 enrichment was 0.973.
`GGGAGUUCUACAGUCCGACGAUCUCCUCAAGUCCUGUGCUACACAUCGUAUGUACCGAAUCGGUUUGGUGGAGGAAAGUAUUAUGUUACGCCGUUCGGAUCUGCACUUCCAGCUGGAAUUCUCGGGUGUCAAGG` has a log2 enrichment of -0.248.
The log2 enrichment of `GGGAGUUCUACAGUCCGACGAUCCAAGUCCUGUGCUACACAUCGUAUGUACCGAAUCGGGGCCCGGCCCGGGCCCGGGAAAGUAUUAUGUUACGCCGUUCGGAUCUGCACUUCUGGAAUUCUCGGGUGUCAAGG` is reported as -0.592.
The log2 enrichment of `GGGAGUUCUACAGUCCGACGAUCCUGUGCUACACAUCGUAUGUACCGAAUCGGGGUUUUUUUGGGGUUUGGGGUUUUUUUGGGGAAAGUAUUAUGUUACGCCGUUCGGAUCUGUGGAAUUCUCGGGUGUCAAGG` is reported as 0.739.
`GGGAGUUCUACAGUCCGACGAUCGCAGGAAGUAAAAACAAAUGGAAAUGCUUCGGAUAGUGGCAGGGGUUGGGGUUGCUAAGGAAAGGGUGGGAUGGGAGUGGGUAAAGAGUUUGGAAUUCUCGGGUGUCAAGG` has a log2 enrichment of 0.594.
The log2 enrichment of `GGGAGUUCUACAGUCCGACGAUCGCAGGAAGUAAAAACAAAUAGAAAUGCUUCGGAUAGUGGCAGGGGUGGGGGUUGCUAAGGAAAGGGUGGGAUGGGAGUGGGUAAAGAGUUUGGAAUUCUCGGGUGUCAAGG` is reported as 1.13.
`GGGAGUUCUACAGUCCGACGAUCUCCUGUGCUACACAUCGUAUGUACCGAAUCGGCCCCCCGGCCCCCCGGGCCCCCCGGGGAAAGUAUUAUGUUACGCCGUUCGGAUCUGCAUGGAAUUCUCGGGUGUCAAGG` gave a log2 enrichment of -0.409.
The log2 enrichment of `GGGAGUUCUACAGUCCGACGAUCAAUUCUCAUUUCUCGACAUAAAGCCUUGUCUAAAGUGAGAUGUUUUCCAGGUCAUACAUAGGUUUCUCCCUGGGGUAAUUGGAAGUUCUUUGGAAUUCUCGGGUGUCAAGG` is reported as -0.323.
The log2 enrichment of `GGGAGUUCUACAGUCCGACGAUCGCAGGAAGUAAAAACAAAUGGAAAUGCUUCGGAUAGUGGCAGGGGUGGGGGUUGCUAAGGAAAGGGUGGGAUGGGAGUGGAUAAAGAGUUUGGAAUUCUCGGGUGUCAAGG` is reported as 0.959.
`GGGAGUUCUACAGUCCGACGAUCCCUCAAGUCCUGUGCUACACAUCGUAUGUACCGAAUCGGAAGGAAGGAAGGGAAAGUAUUAUGUUACGCCGUUCGGAUCUGCACUUCCAGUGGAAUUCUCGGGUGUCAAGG` has a log2 enrichment of -0.225.
The log2 enrichment of `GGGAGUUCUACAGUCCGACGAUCUGGCCCUGGUGGCAUGCGGGGAGGAAGAGGUGGCCUCAUGGAUCGUGGUGGUCCCGGUUGAAUGUUCAGAGGUGGCCGUGGUGGAGACAGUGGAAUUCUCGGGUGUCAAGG` is reported as 0.759.
For `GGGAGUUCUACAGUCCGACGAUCCAAGUCCUGUGCUACACAUCGUAUGUACCGAAUCGGCCCCGGCCCCGGGCCCCGGAAAGUAUUAUGUUACGCCGUUCGGAUCUGCACUUCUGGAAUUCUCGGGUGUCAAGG`, the log2 enrichment was -1.24.
`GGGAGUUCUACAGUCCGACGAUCAAGUCCUGUGCUACACAUCGUAUGUACCGAAUCGGGGAAAAGGAAAAGGGAAAAGGGAAAGUAUUAUGUUACGCCGUUCGGAUCUGCACUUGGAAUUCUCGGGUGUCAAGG` gave a log2 enrichment of -0.196.
With `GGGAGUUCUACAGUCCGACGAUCCCUGUGCUACACAUCGUAUGUACCGAAUCGGAAAAAAAGGAAAAAAAGGGGAAAAAAAGGGAAAGUAUUAUGUUACGCCGUUCGGAUCUGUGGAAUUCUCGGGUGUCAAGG` the log2 enrichment was -0.0266.

Set 3
Target: CCNF, cyclin fold, Cln2 fusion (human)
Technique: yeast growth competition, sequencing
Matrix: yeast
Setting: strong parent motif
Baseline: not given
Reading: higher = stronger binding
Parent: E2F1 docking peptide (human); PPVKRRLDFETDH
`PPVKRRLDFECDH [T11C]` — result for “normalised enrichment score”: 7.3.
For `PPVKRRHDFETDH [L7H]`, “normalised enrichment score” read 0.0381.
`PPVKRRLAFETDH [D8A]` — result for “normalised enrichment score”: 8.01.
`PPVKRRLDFEYDH [T11Y]` — result for “normalised enrichment score”: 7.28.
For `PPVKRKLDFETDH [R6K]`, “normalised enrichment score” read 6.81.
Under “normalised enrichment score”, `PPVKRRLDFLTDH [E10L]` is recorded as 8.18.
`PPVKRRLDCETDH [F9C]` — result for “normalised enrichment score”: 2.08.

Single results of other studies
For `PhoQ, residues 284 288 289 292 302 303 AGHLVA`, the fold induction was 17.4 (PhoP, residues 12 14 15 18 19 GQALL (Escherichia coli, UniProt P23836); Sort-seq, item: YFP reporter; E. coli; PhoQ-PhoP variant library, with: 10 µM Mg2+; baseline: high Mg2+ state, higher = stronger signaling).

Excerpt of the above (set 1):
With `TTTACCCATAAGTCCCACGATTATCCACTTTTTAATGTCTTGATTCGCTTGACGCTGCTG` the fluorescence intensity was 71.8 a.u.
`TGCGCAACAACTTGTCACGGTACTTTATGTCTAGAAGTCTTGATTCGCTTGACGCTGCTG` gave a fluorescence intensity of 201 a.u.
With `TAATTTGTAGTATTGAACGTGACGGGAAACAAAAAAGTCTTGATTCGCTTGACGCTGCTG` the fluorescence intensity was 409 a.u.
